Measurements collected from several papers.
Parts stem from different laboratories: compare values within a part only. Several values in a cell are separate wells, animals, samples, runs or records.
Chain of UniProt Q92772 (whole entry, looked up): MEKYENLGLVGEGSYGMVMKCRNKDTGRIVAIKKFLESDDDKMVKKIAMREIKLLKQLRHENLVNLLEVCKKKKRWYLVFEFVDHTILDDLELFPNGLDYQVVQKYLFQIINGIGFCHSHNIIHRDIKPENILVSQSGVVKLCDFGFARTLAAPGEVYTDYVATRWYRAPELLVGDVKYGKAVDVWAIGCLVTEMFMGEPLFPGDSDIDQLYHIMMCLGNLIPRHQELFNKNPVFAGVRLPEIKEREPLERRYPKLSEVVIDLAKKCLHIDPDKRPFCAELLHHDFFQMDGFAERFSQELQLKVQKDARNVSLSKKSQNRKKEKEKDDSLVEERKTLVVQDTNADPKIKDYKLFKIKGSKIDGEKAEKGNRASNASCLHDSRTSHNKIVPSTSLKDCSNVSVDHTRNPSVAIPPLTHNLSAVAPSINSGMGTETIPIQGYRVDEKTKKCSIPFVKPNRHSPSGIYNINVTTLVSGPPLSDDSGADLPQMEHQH
Chain of UniProt P08631 (whole entry, looked up): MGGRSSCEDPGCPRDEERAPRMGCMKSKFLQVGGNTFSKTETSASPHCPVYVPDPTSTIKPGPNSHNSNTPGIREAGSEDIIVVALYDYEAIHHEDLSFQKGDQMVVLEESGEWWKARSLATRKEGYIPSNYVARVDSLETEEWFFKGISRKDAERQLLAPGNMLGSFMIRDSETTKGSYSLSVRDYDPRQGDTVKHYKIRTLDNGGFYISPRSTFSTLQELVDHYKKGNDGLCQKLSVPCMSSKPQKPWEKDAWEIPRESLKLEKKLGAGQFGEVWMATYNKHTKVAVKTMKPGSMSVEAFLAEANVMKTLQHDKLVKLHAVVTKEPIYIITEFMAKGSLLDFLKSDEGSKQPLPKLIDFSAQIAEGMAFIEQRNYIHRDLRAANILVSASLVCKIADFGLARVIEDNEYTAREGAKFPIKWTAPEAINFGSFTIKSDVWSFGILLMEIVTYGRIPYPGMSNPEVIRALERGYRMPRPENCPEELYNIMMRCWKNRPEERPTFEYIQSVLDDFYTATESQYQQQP
Chain of UniProt Q9NRP7 (whole entry, looked up): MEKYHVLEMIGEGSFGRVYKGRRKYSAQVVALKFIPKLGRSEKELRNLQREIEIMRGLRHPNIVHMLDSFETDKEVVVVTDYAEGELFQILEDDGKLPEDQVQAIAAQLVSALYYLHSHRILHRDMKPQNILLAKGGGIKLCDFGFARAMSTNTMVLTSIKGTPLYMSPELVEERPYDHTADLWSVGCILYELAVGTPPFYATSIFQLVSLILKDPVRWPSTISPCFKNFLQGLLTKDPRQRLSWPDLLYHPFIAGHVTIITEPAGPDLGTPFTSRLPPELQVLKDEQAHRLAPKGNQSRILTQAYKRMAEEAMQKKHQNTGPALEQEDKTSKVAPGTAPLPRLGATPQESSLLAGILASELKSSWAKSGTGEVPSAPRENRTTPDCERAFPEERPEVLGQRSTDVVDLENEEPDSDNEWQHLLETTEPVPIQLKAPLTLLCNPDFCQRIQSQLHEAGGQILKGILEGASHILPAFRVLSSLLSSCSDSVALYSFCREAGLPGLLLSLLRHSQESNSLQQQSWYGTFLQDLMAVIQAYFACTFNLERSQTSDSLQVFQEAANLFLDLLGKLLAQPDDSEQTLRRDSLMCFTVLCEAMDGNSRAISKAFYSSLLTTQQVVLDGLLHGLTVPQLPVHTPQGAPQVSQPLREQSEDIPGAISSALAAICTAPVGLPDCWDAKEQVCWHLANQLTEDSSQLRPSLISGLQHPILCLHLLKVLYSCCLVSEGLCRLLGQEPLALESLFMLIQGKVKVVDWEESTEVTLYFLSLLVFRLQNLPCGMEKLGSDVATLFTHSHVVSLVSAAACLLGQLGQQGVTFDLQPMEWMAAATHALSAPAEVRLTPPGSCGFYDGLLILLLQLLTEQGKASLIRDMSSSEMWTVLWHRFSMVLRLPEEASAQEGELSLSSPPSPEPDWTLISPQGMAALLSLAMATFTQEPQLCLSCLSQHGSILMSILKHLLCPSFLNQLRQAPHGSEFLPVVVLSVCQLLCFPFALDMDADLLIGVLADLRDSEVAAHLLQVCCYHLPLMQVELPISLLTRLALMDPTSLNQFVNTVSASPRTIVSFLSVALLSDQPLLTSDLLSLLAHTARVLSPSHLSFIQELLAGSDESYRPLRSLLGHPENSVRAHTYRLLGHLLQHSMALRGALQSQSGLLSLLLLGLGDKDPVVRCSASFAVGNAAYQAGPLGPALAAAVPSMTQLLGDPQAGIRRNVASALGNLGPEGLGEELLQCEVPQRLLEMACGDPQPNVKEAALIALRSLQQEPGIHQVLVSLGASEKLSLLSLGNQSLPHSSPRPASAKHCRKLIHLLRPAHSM
Chain of UniProt Q9HBH9 (whole entry, looked up): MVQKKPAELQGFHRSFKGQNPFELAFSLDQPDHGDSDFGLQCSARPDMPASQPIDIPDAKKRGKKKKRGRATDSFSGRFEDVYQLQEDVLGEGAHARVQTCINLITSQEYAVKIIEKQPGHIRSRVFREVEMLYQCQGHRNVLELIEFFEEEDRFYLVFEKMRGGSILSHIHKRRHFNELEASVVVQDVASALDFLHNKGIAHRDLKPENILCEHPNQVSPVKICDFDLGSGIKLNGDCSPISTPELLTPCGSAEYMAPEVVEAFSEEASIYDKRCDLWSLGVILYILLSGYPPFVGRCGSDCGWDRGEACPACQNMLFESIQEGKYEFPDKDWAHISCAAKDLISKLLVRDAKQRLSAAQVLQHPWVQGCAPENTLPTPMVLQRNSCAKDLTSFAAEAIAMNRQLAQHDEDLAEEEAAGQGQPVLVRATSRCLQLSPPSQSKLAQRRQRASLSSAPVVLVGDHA
Chain of UniProt Q6P3R8 (whole entry, looked up): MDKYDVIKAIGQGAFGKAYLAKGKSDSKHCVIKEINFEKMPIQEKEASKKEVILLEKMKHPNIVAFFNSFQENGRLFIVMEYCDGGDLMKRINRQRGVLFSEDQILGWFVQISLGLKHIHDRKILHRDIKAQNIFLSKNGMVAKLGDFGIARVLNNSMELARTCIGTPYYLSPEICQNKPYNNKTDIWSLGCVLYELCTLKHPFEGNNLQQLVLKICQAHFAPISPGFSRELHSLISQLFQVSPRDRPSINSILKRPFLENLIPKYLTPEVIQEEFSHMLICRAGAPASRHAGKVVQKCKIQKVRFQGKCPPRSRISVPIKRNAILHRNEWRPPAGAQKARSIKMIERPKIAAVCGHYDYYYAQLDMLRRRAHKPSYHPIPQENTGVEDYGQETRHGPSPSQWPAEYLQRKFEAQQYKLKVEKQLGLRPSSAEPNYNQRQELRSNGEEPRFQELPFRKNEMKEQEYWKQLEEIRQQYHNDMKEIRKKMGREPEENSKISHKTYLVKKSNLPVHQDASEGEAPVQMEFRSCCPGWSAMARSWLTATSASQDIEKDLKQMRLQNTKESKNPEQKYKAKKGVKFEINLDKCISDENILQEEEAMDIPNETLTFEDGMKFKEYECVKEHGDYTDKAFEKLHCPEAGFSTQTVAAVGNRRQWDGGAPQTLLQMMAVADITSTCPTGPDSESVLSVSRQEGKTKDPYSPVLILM

Series 1 — host: mouse; sample: microsomes or S9; tested at: 2 µM; time: 0.5 h
SMILES | remaining compound [%]
Cc1cc(S(=O)(=O)Nc2ccc(=O)n(C)n2)sc1C | 82.3
O=C(Cc1cnc[nH]c1=O)N[C@@H]1CCCC[C@H]1c1ccccc1 | 95.9
Cc1cc(C(=O)NCC2(O)CCCC2(C)C)[nH]n1 (stereo not drawn) | 86
O=S(=O)(Nc1cc(Cl)c(Cl)cc1Cl)c1cc(Cl)c(Cl)cc1Cl | 32.6
CC(=O)c1ccc2[nH]c3c(C(C)=O)cc(Cl)cc3c2c1 | 87.5
Cc1nn(CCC(=O)NC(C)(C)CN2CCCC(C)C2)c(C)c1C (stereo not drawn) | 1.8
O=C(c1ccc(Nc2cc(-n3cccc3)ncn2)cc1)N1CCN(Cc2ccc3c(c2)OCO3)CC1 | 23.6
CC(=O)Nc1cc(O)nc2nc(-c3ccc(C(C)(C)C)cc3)nn12 | 53
CCC(C)(C)C1CCC2(CC1)NC(=O)N(CC(=O)N1CCC(N3CCNC3=O)CC1)C2=O (stereo not drawn) | 45.9
CC(=O)N1CCC(C(=O)N2CCN(c3cc(Cl)ccc3C)CC2)CC1 | 60
COc1ccccc1-c1nc(CN(C)S(=O)(=O)c2c(C)cc(C)cc2C)c(C)o1 | 0.00619
Cc1cc(N2CCC(C(=O)NC(C)(C)C)CC2)nc(Nc2ccc(C#N)c(C(F)(F)F)c2)n1 | 16.6
COc1ccccc1N/C(N)=N/Cc1ccccc1OCCN(C)C | 67.6
Cn1c(CN2CCc3ccccc3C2)cc(=O)c(O)c1CN1CCOC(c2ccccc2)C1 (stereo not drawn) | 37.9
Cc1c[nH]c(CN(C)C(=O)c2cc(CC(C)C)no2)n1 | 0.157
O=C(Nc1ccc(Nc2ccc(-n3cccn3)nn2)cc1)c1cccc(Cl)c1 | 57.2
Cn1c(=O)c2c(-c3ccccc3Br)n(-c3ccc4c(c3)nc(CO)n4C)cc2n(C)c1=O | 23.3
C[C@]12CC[C@@H]3c4ccc(O)cc4CC[C@H]3[C@@H]1CC[C@@H]2O | 90.3

Series 2 — cell line: mouse MPNST tumor cells; method: high-content immunofluorescence imaging; measured: nuclear SOX9; tested at: 10 µM; time: 12 h; notes: mean of 2 replicates; relative to: DMSO control; direction: higher = more nuclear SOX9
Structure (SMILES) | nuclear SOX9 intensity
CC(=NNC(=S)N1CCC1)c1ccccn1 | 248 % of DMSO
CN[C@@H]1[C@H](O[C@H]2[C@H](O[C@H]3[C@H](O)[C@@H](O)[C@H](NC(=N)N)[C@@H](O)[C@@H]3NC(=N)N)O[C@@H](C)[C@]2(O)CO)O[C@@H](CO)[C@H](O)[C@H]1O | 101 % of DMSO
CC(=O)c1cc(-c2cc(C(=O)NC3CC3)ccc2C)c2ncccn12 | 120 % of DMSO and 115 % of DMSO
O=C(O)c1ccccc1Nc1cccc(C(F)(F)F)c1 | 108 % of DMSO
O=C1CCC(N2C(=O)c3ccccc3C2=O)C(=O)N1 (stereo not drawn) | 97.2 % of DMSO and 93.8 % of DMSO
N[C@H](C(=O)O)[C@H](OCc1ccccc1)C(=O)O (racemic) | 99.2 % of DMSO
COc1ccc(CN(CCN(C)C)c2ccccn2)cc1 | 110 % of DMSO
CN1CCN(c2c(F)cc3c(=O)c(C(=O)O)cn(CCF)c3c2F)CC1 | 96.6 % of DMSO
CN(C)CCC(c1ccccc1)c1ccccn1 (stereo not drawn) | 99.6 % of DMSO
c1ccc(-c2n[nH]c3c2oc2ccccc23)cc1 | 75.5 % of DMSO
CC(C)NC(=O)c1ccc(C#Cc2ccncc2)cn1 | 91 % of DMSO
CC[C@@H]([C@H](C)O)n1ncn(-c2ccc(N3CCN(c4ccc(OC[C@@H]5CO[C@@](Cn6cncn6)(c6ccc(F)cc6F)C5)cc4)CC3)cc2)c1=O | 212 % of DMSO
Cc1cc(CN)cc(C)c1-c1ncn(C)c1-c1ccnc2cc(F)ccc12 | 104 % of DMSO
O=c1cc(CN2CCOCC2)occ1OCCCCCSc1ccnc2cc(C(F)(F)F)ccc12 | 118 % of DMSO
Cc1cnc(Nc2ccc(F)cc2Cl)nc1-c1c[nH]c(C(=O)N[C@H](CO)c2cccc(Cl)c2)c1 | 84.5 % of DMSO
Cc1c(NC(=O)N2CCOCC2)ccc2c1c1ccccc1n2C(C)C | 98.5 % of DMSO
O=C(COc1cccc2c(=O)[nH]ccc12)c1ccccc1 | 116 % of DMSO
CN(C)CCC=C1c2ccccc2COc2ccccc21 | 150 % of DMSO
CCn1cc(C(=O)O)c(=O)c2cnc(N3CCCC3)nc21 | 80.7 % of DMSO

Series 3 — effect on: enzyme activity; mode: inhibitor; tested at: 0.5 µM; relative to: control
Target: NUAK family SNF1-like kinase 1 (NUAK1, Homo sapiens, UniProt O60285)
Chain of UniProt O60285 (whole entry, looked up): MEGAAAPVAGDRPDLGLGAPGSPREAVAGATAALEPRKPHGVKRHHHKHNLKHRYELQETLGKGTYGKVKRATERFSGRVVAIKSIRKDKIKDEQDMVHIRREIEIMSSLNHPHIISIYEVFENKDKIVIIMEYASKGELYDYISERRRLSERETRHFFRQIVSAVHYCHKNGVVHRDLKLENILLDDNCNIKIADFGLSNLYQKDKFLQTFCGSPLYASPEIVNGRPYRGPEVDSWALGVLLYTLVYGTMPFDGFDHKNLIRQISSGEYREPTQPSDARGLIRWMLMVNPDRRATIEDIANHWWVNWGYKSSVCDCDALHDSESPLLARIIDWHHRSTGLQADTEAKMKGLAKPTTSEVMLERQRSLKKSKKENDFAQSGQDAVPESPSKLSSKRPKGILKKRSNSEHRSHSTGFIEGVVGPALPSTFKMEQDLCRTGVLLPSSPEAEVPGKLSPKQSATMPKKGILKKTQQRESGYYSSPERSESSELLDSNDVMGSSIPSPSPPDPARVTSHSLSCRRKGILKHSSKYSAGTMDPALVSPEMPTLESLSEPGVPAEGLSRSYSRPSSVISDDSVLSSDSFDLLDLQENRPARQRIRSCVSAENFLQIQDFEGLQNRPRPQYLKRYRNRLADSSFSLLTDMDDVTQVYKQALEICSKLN
Compound | remaining activity [%]
CC(C)(C)n1nc(Cc2cccc3ccccc23)c2c(N)ncnc21 | 98.8
CC[n+]1c(/C=C/N(C)c2ccccc2)n(-c2ccccc2)c2ccc(-c3nc4ccccc4s3)cc21 | 96.1
O=C1Cc2c([nH]c3ccc([N+](=O)[O-])cc23)-c2ccccc2N1 | 12
Cc1cc(Nc2nc(-c3ccccc3)nc3ccccc23)n[nH]1 | 3.88
O=S(=O)(NCCNC/C=C/c1ccc(Br)cc1)c1cccc2cnccc12 | 32.8
Cc1ccc(NC2=CC(=O)c3sc(C)nc3C2=O)cc1 | 93
Nc1ncnc2c1cnn2-c1ccccc1 | 93.2
CCc1[nH]c(-c2ccc(OC)cc2)nc1-c1ccncc1 | 92.8
CC#CC(=O)Nc1cc2c(Nc3ccc(F)c(Cl)c3)ncnc2cn1 | 98.1
CSc1nc(-c2ccnc(N[C@@H](C)c3ccccc3)c2)c(-c2ccc(F)cc2)[nH]1 (racemic) | 94.3
COc1ccc(S(=O)(=O)N(CCO)c2ccccc2CN(C)CC=Cc2ccc(Cl)cc2)cc1 | 96.5
COc1cc(Nc2c(C#N)cnc3cc(OCCCN4CCN(C)CC4)c(OC)cc23)c(Cl)cc1Cl | 11.4
NC(=O)c1ccc(N(C(N)=O)c2c(F)cccc2F)nc1-c1ccc(F)cc1F | 108
Nc1nc(Nc2ccc(S(N)(=O)=O)cc2)nn1C(=O)c1c(F)cccc1F | 3.29
O=C1NC(=O)C(c2c[nH]c3ccccc23)=C1c1c[nH]c2ccccc12 | 78.5
CC(=O)c1ccc(N2CCOCC2)cc1O | 92.8
Oc1ccc(Nc2nc(-c3ccc(Cl)cc3)cs2)cc1 | 90.7
Cc1cncc2cccc(S(=O)(=O)N3CCCN(C(=O)CN)C[C@@H]3C)c12 | 91.1
N#CC(=C(N)Sc1ccc(N)cc1)c1ccccc1C(F)(F)F | 95.9
Nc1nccc(-c2c(-c3ccc(F)cc3)ncn2C2CCNCC2)n1 | 98.4
Fc1ccc(-c2nc3n(c2-c2ccncc2)CCS3)cc1 | 98.6
CCCC(=O)Oc1ccc2[nH]c(C(=O)c3cc4ccccc4[nH]3)cc2c1 | 94

Series 4 — method: competition with immobilised ligand; tested at: 1 µM
SMILES: O=C(O)[C@@H]1[C@@H](Cn2nnc3ccccc3c2=O)CC[C@H]1C(=O)c1ccc(OCCC2CCOCC2)cc1
target | test | remaining binding
Serine/threonine-protein kinase 36 (STK36, Homo sapiens, UniProt Q9NRP7) | cell-free assay | 91%
Tyrosine-protein kinase HCK (HCK, Homo sapiens, UniProt P08631) | cell-free assay | 100%
Cyclin-dependent kinase-like 2 (CDKL2, Homo sapiens, UniProt Q92772) | binding | 73%
Ephrin type-B receptor 1 (EPHB1, Homo sapiens, UniProt P54762) | cell-free assay | 100%
Serine/threonine-protein kinase Nek5 (NEK5, Homo sapiens, UniProt Q6P3R8) | cell-free assay | 100%
MAP kinase-interacting serine/threonine-protein kinase 2 (MKNK2, Homo sapiens, UniProt Q9HBH9) | cell-free assay | 99%
Hepatocyte growth factor receptor (MET, Homo sapiens, UniProt P08581, M1250T) | cell-free assay | 100%

Some of these lines once more (series 3):
Compound | remaining activity [%]
CCc1[nH]c(-c2ccc(OC)cc2)nc1-c1ccncc1 | 92.8
NC(=O)c1ccc(N(C(N)=O)c2c(F)cccc2F)nc1-c1ccc(F)cc1F | 108
CSc1nc(-c2ccnc(N[C@@H](C)c3ccccc3)c2)c(-c2ccc(F)cc2)[nH]1 (racemic) | 94.3
Oc1ccc(Nc2nc(-c3ccc(Cl)cc3)cs2)cc1 | 90.7
Nc1ncnc2c1cnn2-c1ccccc1 | 93.2
O=S(=O)(NCCNC/C=C/c1ccc(Br)cc1)c1cccc2cnccc12 | 32.8
Nc1nccc(-c2c(-c3ccc(F)cc3)ncn2C2CCNCC2)n1 | 98.4
Nc1nc(Nc2ccc(S(N)(=O)=O)cc2)nn1C(=O)c1c(F)cccc1F | 3.29
